Measured values of several laboratories.
Lines come from different studies, so protocols differ. ± marks the error that the study gave.
Cell line: human erythrocytes

Structure (SMILES) = CC(=O)N[C@H](CCCCN)C(=O)N[C@H](CC(C)C)C(=O)N[C@H](CCCN)C(=O)N[C@H](CO)C(=O)N[C@H](CC(C)C)C(=O)N[C@H](CC(C)C)C(=O)N[C@H](CCCN)C(=O)N[C@@H](C(=O)N[C@H](CC(C)C)C(=O)N[C@H](CO)C(=O)N[C@H](CCCN)C(=O)N[C@H](C)C(=O)N[C@H](C)C(=O)N[C@H](C)C(=O)N[C@H](C)C(=O)N[C@H](C)C(=O)N[C@H](CC(C)C)C(=O)N[C@H](CCCN)C(=O)N[C@@H](C(=O)N[C@H](CC(C)C)C(=O)N[C@H](CC(C)C)C(=O)N[C@H](CCCN)C(=O)N[C@H](C)C(=O)N[C@H](CC(C)C)C(=O)N[C@H](CO)C(=O)N[C@H](CCCN)C(N)=O)[C@H](C)O)[C@H](C)O; test = hemoglobin release; conditions = 18 h, pH 7.4, 37 °C, 50% hemolysis; endpoint = HC50; result = 0.9 µM
Structure (SMILES) = CC(C)C[C@H](NC(=O)[C@H](C)NC(=O)CNC(=O)[C@@H](NC(=O)[C@@H](NC(=O)[C@H](CCCCN)NC(=O)[C@H](CCCCN)NC(=O)[C@H](CC(C)C)NC(=O)[C@H](CC(C)C)NC(=O)[C@H](CCCCN)NC(=O)[C@H](CC(C)C)NC(=O)[C@H](CC(C)C)NC(=O)[C@@H](N)CCCCN)C(C)C)C(C)C)C(=O)NCC(N)=O; conditions = ≤5% haemolysis; endpoint = minimal haemolytic concentration; result = 125 µM
Structure (SMILES) = CC[C@H](C)[C@H](NC(=O)[C@H](CC(C)C)NC(=O)CNC(=O)[C@H](CCCCN)NC(=O)[C@@H](NC(=O)[C@@H](NC(=O)[C@H](CC(N)=O)NC(=O)[C@H](Cc1c[nH]c2ccccc12)NC(=O)[C@@H](NC(=O)[C@H](CCC(=O)O)NC(=O)CNC(=O)[C@H](Cc1c[nH]c2ccccc12)NC(=O)[C@@H](N)CC(C)C)[C@@H](C)CC)[C@@H](C)O)C(C)C)C(N)=O; conditions = up to 200 µg/mL, 1 h, 37 °C; endpoint = hemolysis; result = < 50%
Structure (SMILES) = CC[C@H](C)[C@H](NC(=O)[C@H](CCCNC(=N)N)NC(=O)[C@H](CCCCN)NC(=O)[C@H](CC(C)C)NC(=O)[C@H](CC(C)C)NC(=O)CN)C(=O)N[C@@H](CCCCN)C(=O)N[C@H](C(=O)N[C@@H](CC(C)C)C(=O)N[C@@H](CC(C)C)C(=O)NCCCC[C@H](NC(=O)[C@H](CC(C)C)NC(=O)[C@H](CC(C)C)NC(=O)[C@@H](NC(=O)[C@H](CCCCN)NC(=O)[C@@H](NC(=O)[C@H](CCCNC(=N)N)NC(=O)[C@H](CCCCN)NC(=O)[C@H](CC(C)C)NC(=O)[C@H](CC(C)C)NC(=O)CN)[C@@H](C)CC)[C@@H](C)O)C(=O)NCCCC[C@H](NC(=O)[C@H](CCCCNC(=O)[C@H](CC(C)C)NC(=O)[C@H](CC(C)C)NC(=O)[C@@H](NC(=O)[C@H](CCCCN)NC(=O)[C@@H](NC(=O)[C@H](CCCNC(=N)N)NC(=O)[C@H](CCCCN)NC(=O)[C@H](CC(C)C)NC(=O)[C@H](CC(C)C)NC(=O)CN)[C@@H](C)CC)[C@@H](C)O)NC(=O)[C@H](CC(C)C)NC(=O)[C@H](CC(C)C)NC(=O)[C@@H](NC(=O)[C@H](CCCCN)NC(=O)[C@@H](NC(=O)[C@H](CCCNC(=N)N)NC(=O)[C@H](CCCCN)NC(=O)[C@H](CC(C)C)NC(=O)[C@H](CC(C)C)NC(=O)CN)[C@@H](C)CC)[C@@H](C)O)C(N)=O)[C@@H](C)O; conditions = 1 h, 37 °C, 10% haemolysis; endpoint = minimum haemolytic concentration; result = 1.31 µM
Structure (SMILES) = CC[C@@H](C)[C@@H](NC(=O)[C@@H](C)NC(=O)[C@@H](CCCCN)NC(=O)[C@@H](CC(C)C)NC(=O)[C@@H](C)NC(=O)[C@H](NC(=O)[C@@H](Cc1c[nH]cn1)NC(=O)[C@@H](CC(C)C)NC(=O)[C@H](NC(=O)[C@H](NC(=O)[C@@H](CCCCN)NC(=O)[C@@H](CCCCN)NC(=O)[C@@H](C)NC(=O)[C@@H](CO)NC(=O)[C@@H](CCCCN)NC(=O)[C@@H](Cc1ccccc1)NC(=O)[C@H](NC(=O)[C@@H](CCCCN)NC(=O)[C@@H](CC(C)C)NC(=O)[C@@H](Cc1ccccc1)NC(=O)[C@@H](CO)NC(=O)[C@@H](CCCCN)NC(=O)[C@@H](Cc1c[nH]c2ccccc12)NC(=O)[C@@H](CCCCN)NC(C)=O)[C@H](C)O)[C@H](C)O)C(C)C)[C@H](C)O)C(=O)N[C@H](CO)C(=O)N[C@H](CO)C(N)=O; conditions = 18 h, pH 7.4, 37 °C; endpoint = HC50; result = 422 µg/mL
Structure (SMILES) = CCCCCC(=O)NCC(=O)N[C@@H](CC(C)C)C(=O)N[C@@H](CC(C)C)C(=O)N[C@@H](CCCCN)C(=O)N[C@@H](CCCNC(=N)N)C(=O)N[C@H](C(=O)N[C@@H](CCCCN)C(=O)N[C@H](C(=O)N[C@@H](CC(C)C)C(=O)N[C@@H](CC(C)C)C(=O)NCCCC[C@H](NC(=O)[C@H](CCCCNC(=O)[C@H](CC(C)C)NC(=O)[C@H](CC(C)C)NC(=O)[C@@H](NC(=O)[C@H](CCCCN)NC(=O)[C@@H](NC(=O)[C@H](CCCNC(=N)N)NC(=O)[C@H](CCCCN)NC(=O)[C@H](CC(C)C)NC(=O)[C@H](CC(C)C)NC(=O)CNC(=O)CCCCC)[C@@H](C)CC)[C@@H](C)O)NC(=O)[C@H](CC(C)C)NC(=O)[C@H](CC(C)C)NC(=O)[C@@H](NC(=O)[C@H](CCCCN)NC(=O)[C@@H](NC(=O)[C@H](CCCNC(=N)N)NC(=O)[C@H](CCCCN)NC(=O)[C@H](CC(C)C)NC(=O)[C@H](CC(C)C)NC(=O)CNC(=O)CCCCC)[C@@H](C)CC)[C@@H](C)O)C(N)=O)[C@@H](C)O)[C@@H](C)CC; conditions = 1 h, 37 °C, 10% haemolysis; endpoint = minimum haemolytic concentration; result = 0.71 µM
Structure (SMILES) = CC[C@@H](CC(=O)N[C@@H](CCCNC(=N)N)CC(=O)N[C@H](CC(=O)N[C@@H](CC)CC(=O)N[C@@H](CCCNC(=N)N)CC(=O)N[C@H](CC(=O)N[C@@H](CC)CC(=O)N[C@@H](CCCNC(=N)N)CC(N)=O)[C@@H](C)CC)[C@@H](C)CC)NC(=O)C[C@@H](NC(=O)C[C@@H](N)Cc1ccc(O)cc1)[C@@H](C)CC; conditions = antifungal MIC, 1 h, 37 °C; how to read = relative to: melittin; endpoint = haemolysis; result = 7.2 ± 3.4%
Structure (SMILES) = CC(C)C[C@H](NC(=O)[C@H](CCN)NC(=O)[C@H](CCN)NC(=O)[C@H](CC(C)C)NC(=O)[C@H](Cc1c[nH]c2ccccc12)NC(=O)[C@H](CCN)NC(=O)[C@@H](N)CC(C)C)C(N)=O; conditions = up to 100 µM, 4 h, 37 °C; how to read = relative to: Triton X-100; endpoint = hemolysis; result = < 10%

Some of these lines once more:
Structure (SMILES) = CC[C@H](C)[C@H](NC(=O)[C@H](CC(C)C)NC(=O)CNC(=O)[C@H](CCCCN)NC(=O)[C@@H](NC(=O)[C@@H](NC(=O)[C@H](CC(N)=O)NC(=O)[C@H](Cc1c[nH]c2ccccc12)NC(=O)[C@@H](NC(=O)[C@H](CCC(=O)O)NC(=O)CNC(=O)[C@H](Cc1c[nH]c2ccccc12)NC(=O)[C@@H](N)CC(C)C)[C@@H](C)CC)[C@@H](C)O)C(C)C)C(N)=O; conditions = up to 200 µg/mL, 1 h, 37 °C; endpoint = hemolysis; result = < 50%
